Measurements from different studies.
Lines come from different studies, so protocols differ. Values joined by “and” are separate records of one study, mostly repeats; a detail may differ. Numbers after ± are the reported error.

CC(=Nc1ccc(N=Cc2ccc3[nH]ccc3c2)cc1)N(C)C
worm burden reduction (Necator americanus; infected hamsters; oral, 25 mg/kg single dose, 49 days post infection): 49 ± 18.2%

CN(C)C(=O)CN1CCN(c2cnc3c(cc(C(=O)NCc4ccc(Cl)cc4)c(=O)n3CC(=O)N3CC(C)(F)C3)n2)C1=O
EC50 (human cytomegalovirus; viral replication, GFP reporter; MRC-5, AD169-GFP): 831 nM

C(=N\Nc1ccccc1)/c1ccc(-c2ccc(/C=N/Nc3ccccc3)cc2)cc1
selectivity ratio (Pichia kudriavzevii; ATCC 6258; relative to: CC50 over MIC): < 0.6

N=C(N)c1ccc(OCCCCCOc2ccc(C(=N)N)cc2)cc1
FICI (Escherichia coli; checkerboard; BW25113; synergy at FICI ≤0.5, unit not given, added: novobiocin; lower = stronger synergy): ≤ 0.281

Nc1nc(-c2ccccc2)nc2[nH]nc(Nc3ccc(C(F)(F)F)cc3)c12
clinical score (coxsackievirus B3; 31-1-93, NMRI mice, CVB3 chronic myocarditis; oral, 100 mg/kg twice daily, day 8, dosed days 1 to 7, score scale 0 to 7; direction not given): 0.22

CC[C@H]1OC(=O)[C@H](C)[C@@H](O[C@H]2C[C@@](C)(OC)[C@@H](O)[C@H](C)O2)[C@H](C)[C@@H](O[C@@H]2O[C@H](C)C[C@H](N(C)C)[C@H]2O)[C@](C)(OC)C[C@@H](C)C(=O)[C@H](C)[C@@H](O)[C@]1(C)O
MIC50 (Mycobacterium avium; resazurin microtitre; 104; 4 days, 37 °C): 0.2 µM

Cc1cc(OC(C)C)ccc1C(=O)C(C)(C)NC(=O)c1sccc1C
inhibition (Botrytis cinerea; germ tube elongation; B05.10; 0.01 µg/mL): 34 ± 32.8%

Cc1ccc(NC(=O)N2Cc3[nH]cnc3C[C@H]2c2nc(-c3ccc4c(c3)OCO4)no2)cc1
mean lifespan (Caenorhabditis elegans; N2; 1.56 µM): 20.7 days

CC(=Nc1ccc(N=Cc2c[nH]cn2)cc1)N(C)C
worm burden reduction (Necator americanus; infected hamsters; oral, 25 mg/kg single dose, 49 days post infection): 90.5 ± 5.9%

N=C(N)c1ccc(OCc2ccc(Br)cc2COc2ccc(C(=N)N)cc2)cc1
MIC of compound in combination (Escherichia coli; checkerboard; mcr-1 polymyxin-resistant; concentration not given, 20 h, added: rifampicin): 3.13 µg/mL

CN[C@H](CC(C)C)C(=O)N[C@H]1C(=O)N[C@@H](CC(N)=O)C(=O)N[C@H]2C(=O)N[C@H]3C(=O)N[C@H](C(=O)N[C@H](C(=O)O)c4cc(O)cc(O)c4-c4cc3ccc4O)[C@H](O)c3ccc(c(Cl)c3)Oc3cc2cc(c3O[C@@H]2O[C@H](CO)[C@@H](O)[C@H](O)[C@H]2O[C@H]2C[C@](C)(N)[C@H](O)[C@H](C)O2)Oc2ccc(cc2Cl)[C@H]1O
bacterial load (Staphylococcus epidermidis; 9397, female ICR mice, peritonitis, kidney; dose not given): 5.85 log CFU and 3.52 log CFU and 5.33 log CFU and 4.83 log CFU and 3.82 log CFU

COc1cc([C@@H]2c3cc4c(cc3[C@@H](O[C@@H]3O[C@@H]5CO[C@@H](C)O[C@H]5[C@H](O)[C@H]3O)[C@H]3COC(=O)[C@H]23)OCO4)cc(OC)c1O
viability (OCI-Ly1; 0.5 µM, 120 h): 6.18%

CN[C@H](CC(C)C)C(=O)N[C@H]1C(=O)N[C@@H](CC(N)=O)C(=O)N[C@H]2C(=O)N[C@H]3C(=O)N[C@H](C(=O)N[C@H](C(=O)O)c4cc(O)cc(O)c4-c4cc3ccc4O)[C@H](O)c3ccc(c(Cl)c3)Oc3cc2cc(c3O[C@@H]2O[C@H](CO)[C@@H](O)[C@H](O)[C@H]2O[C@H]2C[C@](C)(N)[C@H](O)[C@H](C)O2)Oc2ccc(cc2Cl)[C@H]1O
MIC50 (Staphylococcus aureus; MRSA, 10 isolates; serum 50%): 4 µg/mL

CCOC(=O)c1c(C)nc(NCCNc2ccnc3cc(Cl)ccc23)nc1-c1ccccc1
EC50 (human cytomegalovirus; viral replication; HEL, AD-169): > 4000 nM

CC1(F)CN(C(=O)Cn2c(=O)c(C(=O)NCc3ccc(Cl)cc3)cc3nc(N4CCN(CC(=O)O)C4=O)cnc32)C1
EC50 (human cytomegalovirus; viral replication, GFP reporter; MRC-5, AD169-GFP): 1280 nM

COC(=O)[C@@H](NCc1cc2ccccc2nc1OCc1ccccc1)C(C)C
growth (Pseudomonas aeruginosa; 2 µg/mL, added: pentamidine 100 µM; relative to: control): 97.9%

CC(=O)NC[C@H]1CN(c2ccc(N3CCOCC3)c(F)c2)C(=O)O1
MIC50 (Streptococcus pneumoniae; penicillin-resistant, 10 isolates; pH 8.5): 1 µg/mL

CC(=Nc1ccc(N=Cc2ccc3c(c2)OCCO3)cc1)N(C)C
worm burden reduction (Necator americanus; infected hamsters; oral, 50 mg/kg single; relative to: untreated): 81.7 ± 14.5%

N=C(N)c1ccc(OCc2cccc(COc3ccc(C(=N)N)cc3)c2)cc1
MIC in combination (Escherichia coli; BW25113; concentration not given, lowest-FICI combination, added: rifampicin): 50 µg/mL

CC(=Nc1ccc(N=Cc2ccc3[nH]cnc3c2)cc1)N(C)C
worm burden reduction (Necator americanus; infected hamsters; oral, 12.5 mg/kg single dose, 49 days post infection): > 70% and 70.3%

N#Cc1nc(-c2ccccc2)oc1N1CCCC1CO (centres unmarked)
EC50 (human cytomegalovirus; viral replication; HFF, AD169): < 50 nM

CC(C)n1ncc2c(C(=O)NCC3(C)CNC3)cc(C3CC3)nc21
cell protection (Enterovirus D68; cytopathic effect; RD, US/IL/14-18956; 1500 nM): 101% and 98.9% and 100%

COC(=O)[C@H](Cc1c[nH]c2ccccc12)NCc1cc2ccccc2nc1SC
growth (Pseudomonas aeruginosa; 64 µg/mL, added: pentamidine 50 µM; relative to: control): 81.2%

Nc1ccn(C[C@@H](CO)OCP(=O)(O)O)c(=O)n1
EC90 (Human betaherpesvirus 5; viral replication, virus yield reduction; HFF, AD169): 370 nM

CC(=Nc1ccc(N=Cc2cccnc2)cc1)N(C)C
worm burden reduction (Necator americanus; infected hamsters; oral, 50 mg/kg single; relative to: untreated): 93.3 ± 6.7%

CC1(F)CN(C(=O)Cn2c(=O)c(C(=O)NCc3ccc(Cl)cc3)cc3nc(N4CCCC4=O)cnc32)C1
EC50 (human cytomegalovirus; viral replication, GFP reporter; MRC-5, AD169-GFP): 169 nM

CCc1nn(C)c2nc(-c3ccc(C(=O)O)cc3)nc(NCc3ccc(F)cc3)c12
parasite number (Cryptosporidium parvum; HCT-8; 3 x EC90, 48 h; relative to: DMSO control): 23.6% and 21.8% and 22.7%

CC1(F)CN(C(=O)Cn2c(=O)c(C(=O)NCc3ccc(Cl)cc3)cc3nc(N4CCNC4=O)cnc32)C1
EC50 (human cytomegalovirus; viral cytopathic effect; MRC-5, Davis; 168 h): 160 nM

CC(=O)N1CCC(C(=O)N2CCN3C(=O)c4cc(-c5ccccc5)ccc4NC(=O)C3C2)CC1 (centres unmarked)
mean lifespan (Caenorhabditis elegans; N2; 1.56 µM): 20.5 days

COC(=O)[C@@H](CCSC)NCc1cc2ccccc2nc1SC
growth (Pseudomonas aeruginosa; 4 µg/mL, without pentamidine; relative to: control): 95.7%

Cc1ccc(CCC(=O)Nc2nnc(S(N)(=O)=O)s2)cc1
MIC (Bifidobacterium longum; HM-845): > 784 µM

CC(=Nc1ccc(N=Cc2ccc[nH]2)cc1)N(C)C
worm burden reduction (Necator americanus; infected hamsters; oral, 50 mg/kg single; relative to: untreated): 100%

Cc1nc(NCCCNc2ccnc3cc(Cl)ccc23)nc(-c2cccc([N+](=O)[O-])c2)c1C(=O)OC(C)C
EC50 (human cytomegalovirus; viral replication; HEL, AD-169): > 4000 nM

CC(=Nc1ccc(N=Cc2ccc(C=Nc3ccc(N=C(C)N(C)C)cc3)o2)cc1)N(C)C
worm burden reduction (Necator americanus; infected hamsters; oral, 50 mg/kg single; relative to: untreated): 91.7 ± 5%

COC(=O)[C@H](Cc1c[nH]c2ccccc12)NCc1cc2ccccc2nc1OC
growth (Pseudomonas aeruginosa; 4 µg/mL, added: pentamidine 100 µM; relative to: control): 57.5%

CC(=Nc1ccc(N=Cc2nc3ccccc3[nH]2)cc1)N(C)C
worm burden reduction (Necator americanus; infected hamsters; oral, 50 mg/kg single; relative to: untreated): 58.8 ± 21.3%

O=C(CCCCCCC(=O)Nc1ccc(I)cc1)NO
viability (OCI-Ly1; 0.5 µM, 120 h): 27.5%

CC(C)C[C@H](NC(=O)[C@H](Cc1ccccc1)NC(=O)c1cnccn1)B(O)O
protein level (Spodoptera frugiperda; degrader, targeted LC-MS, item: BRD3 (S. frugiperda); Sf9; concentration not given, compound alone): 83.5% and 72.3% and 95.3% and 97%

COC(=O)c1cn(C)c2ccc(-c3cccnc3)cc12
metabolic activity (COS-7; WST-8; 10 µM, 24 h, 0.1% DMSO, unit not given; relative to: vehicle control): 0.98 ± 0.06

CC(=O)NC[C@H]1CN(c2ccc(N3CCOCC3)c(F)c2)C(=O)O1
MIC (Bifidobacterium longum; HM-847): < 2.96 µM

CCOC(=O)c1c(C)nc(NCCCCNc2ccnc3cc(Cl)ccc23)nc1C
EC50 (human cytomegalovirus; viral replication; HEL, AD-169): > 4000 nM

Excerpt of the above:
N=C(N)c1ccc(OCCCCCOc2ccc(C(=N)N)cc2)cc1
FICI (Escherichia coli; checkerboard; BW25113; synergy at FICI ≤0.5, unit not given, added: novobiocin; lower = stronger synergy): ≤ 0.281

Nc1nc(-c2ccccc2)nc2[nH]nc(Nc3ccc(C(F)(F)F)cc3)c12
clinical score (coxsackievirus B3; 31-1-93, NMRI mice, CVB3 chronic myocarditis; oral, 100 mg/kg twice daily, day 8, dosed days 1 to 7, score scale 0 to 7; direction not given): 0.22

CC[C@H]1OC(=O)[C@H](C)[C@@H](O[C@H]2C[C@@](C)(OC)[C@@H](O)[C@H](C)O2)[C@H](C)[C@@H](O[C@@H]2O[C@H](C)C[C@H](N(C)C)[C@H]2O)[C@](C)(OC)C[C@@H](C)C(=O)[C@H](C)[C@@H](O)[C@]1(C)O
MIC50 (Mycobacterium avium; resazurin microtitre; 104; 4 days, 37 °C): 0.2 µM
